Published values of several laboratories.
Every numbered part comes from another study and shows a few of its results, in no order. Positions count from the first letter of the parent shown.

Series 1
Target: Interferon regulatory factor 7, full length, phosphomimetic (IRF7, Homo sapiens, UniProt Q92985, residues 1-503, S101K/S471D/S472D/S475D/S476D/S477D/S483D/S484D/S487D)
Technique: protein-binding microarray
Form: double-stranded DNA, one strand shown
Matrix: in vitro
Tested at: 250 nM
Notes: 60-bp whole probe
Together with: salmon DNA 0.4 mg/ml
Relative to: random background probes
Direction: higher = stronger binding
Shared flanks, not repeated: GCCTAGCAC … GTCTTGATTCGCTTGACGCTGCTG
Construct (chain): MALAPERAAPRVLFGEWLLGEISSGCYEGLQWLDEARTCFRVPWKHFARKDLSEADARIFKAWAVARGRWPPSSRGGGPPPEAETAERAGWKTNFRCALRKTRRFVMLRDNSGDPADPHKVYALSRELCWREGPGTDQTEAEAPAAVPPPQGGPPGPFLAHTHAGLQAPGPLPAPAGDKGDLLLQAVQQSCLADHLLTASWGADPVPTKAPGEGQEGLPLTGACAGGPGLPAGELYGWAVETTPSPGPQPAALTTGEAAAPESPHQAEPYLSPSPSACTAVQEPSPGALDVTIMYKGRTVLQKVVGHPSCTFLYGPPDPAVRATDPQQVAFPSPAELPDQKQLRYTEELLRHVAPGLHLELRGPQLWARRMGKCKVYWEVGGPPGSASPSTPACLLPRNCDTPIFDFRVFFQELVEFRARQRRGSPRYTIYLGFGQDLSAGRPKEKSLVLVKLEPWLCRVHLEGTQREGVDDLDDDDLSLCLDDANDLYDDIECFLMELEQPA
Oligonucleotide	log fluorescence
ATAGGTTCCCTTTTCCTTTAGTGCTAG	4.02 z-score
TTAGATTTCAGTTTCGATAAGTGCTAG	5.28 z-score
GACGGTTTCGACACTGCGGACGTGCTA	4.02 z-score
TCATCCATGCTCTGTCGCACTGTGCTA	-0.0809 z-score
TTAGGTCTGCTTTTCCTTTAGTGCTAG	1.1 z-score
GACGGACTGGGTTTCGCGACGTGCTAG	0.182 z-score

Series 2
Target: CCNA1, cyclin fold, Cln2 fusion (human)
Technique: yeast growth competition, sequencing
Matrix: yeast
Notes: weak parent motif
Relative to: not given
Direction: higher = stronger binding
Parent: WEE1 docking peptide (human); HKTFRKLRLFDTP
Change	normalised enrichment score
F4L	-0.178
T12W	0.163
T3C	-0.202
K6N	0.316
L9S	0.667
L9A	0.354
R5N	-2.75

Series 3
Target: Prothrombin, mature alpha-thrombin (F2, Homo sapiens, UniProt P00734)
Technique: aptamer microarray, sandwich
Form: DNA with 2'F-ANA
Matrix: in vitro
Tested at: 200 nM
Notes: whole 15-mer aptamer, many near background
Together with: Cy3 exosite-II aptamer, 400 nM
Direction: higher = stronger binding
Oligonucleotide: GGTTGGTGTGGTTGG
Modification	mean fluorescence intensity
2'F-ANA at 1 2 5 6 7 9 10 14	50 a.u.
2'F-ANA at 1 5 8 9 10 12 14 15	51.2 a.u.
2'F-ANA at 2 3 4 5 6 7 8 9 12 13 14	72.4 a.u.
2'F-ANA at 1 4 5 7 9 10 13	50.8 a.u.
2'F-ANA at 2 3 4 6 8 11 13 14	246 a.u.
2'F-ANA at 2 7 9 13 14	146 a.u.
2'F-ANA at 2 4 7 8 14	171 a.u.
2'F-ANA at 5 6 7 8 10 11 12 14	47.4 a.u.
2'F-ANA at 2 5 6 8 9 10 11 12 14 15	48.1 a.u.

Further values, each from its own experiment
Substance	target	test	system	conditions	scale	endpoint	result
PhoQ, residues 284 288 289 292 302 303 SCEHLI	PhoP, residues 12 14 15 18 19 SMASL (Escherichia coli, UniProt P23836)	Sort-seq, measured: YFP reporter	E. coli	PhoQ-PhoP variant library, together with: 10 µM Mg2+	relative to: high Mg2+ state, higher = stronger signaling	fold induction	7.8

Some of these lines once more (series 2):
Change	normalised enrichment score
T3C	-0.202
